Experimental data of several laboratories.
Each numbered part is a random draw from the data of one study; scales do not carry over between parts. Changes are numbered by the printed parent chain.

Sample 1 — target: CCNA1, cyclin fold, Cln2 fusion (human); method: yeast growth competition, sequencing; sample: yeast; setting: weak parent motif; relative to: not given; reading: higher = stronger binding
Starting sequence: CDKN1A docking peptide (human); SKACRRLFGPVDS
| Substitution | normalised enrichment score |
| --- | --- |
| SKAFRRLFGPVDS [C4F] | -0.502 |
| SKACRRLFGPRDS [V11R] | 0.379 |
| SKACRRFFGPVDS [L7F] | 0.00666 |
| SKACRHLFGPVDS [R6H] | 0.208 |
| SKAVRRLFGPVDS [C4V] | 0.238 |
| SKACRYLFGPVDS [R6Y] | 0.25 |
| SKACRELFGPVDS [R6E] | 0.297 |
| SKACNRLFGPVDS [R5N] | 0.199 |
| SKACRRLMGPVDS [F8M] | 0.323 |
| SKACRRLIGPVDS [F8I] | 0.273 |
| SKACRRLFGPGDS [V11G] | 0.399 |
| SKWCRRLFGPVDS [A3W] | -0.378 |
| SKACRRLFGPVLS [D12L] | -0.114 |
| SKACRRLFGPVCS [D12C] | 0.142 |
| SKACRRLFGPVMS [D12M] | 0.601 |
| SKADRRLFGPVDS [C4D] | 0.179 |
| SKACRKLFGPVDS [R6K] | 0.681 |
| SKACRRLFGPADS [V11A] | 0.697 |
| SRACRRLFGPVDS [K2R] | 0.452 |
| SKACRRLFGPVTS [D12T] | 0.559 |

Sample 2 — target: CRIPT, C-terminal peptide; method: DHFR complementation, deep sequencing; sample: yeast; relative to: wild type; reading: higher = weaker binding
Setting: single substitutions, model-inferred values
Starting sequence: ERBIN, PDZ domain 1 (human); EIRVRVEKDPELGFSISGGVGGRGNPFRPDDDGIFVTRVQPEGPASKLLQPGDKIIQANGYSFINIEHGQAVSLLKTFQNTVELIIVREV; partner TKNYKQTSV
| Substitution | binding free energy change [kcal/mol] |
| --- | --- |
| I64S | -0.0277 |
| G60F | 0.234 |
| R28L | 0.1 |
| V6M | 0.317 |
| R5F | 0.0594 |
| V87Q | -0.0738 |
| P41A | 0.172 |
| Y61C | -0.00404 |
| G52T | 0.419 |
| E67D | 0.109 |
| V90S | 0.0169 |
| E7M | -0.139 |
| P51V | 0.26 |
| G43N | 1.28 |
| G13M | 0.497 |
| V39F | -0.272 |
| S46T | 0.11 |
| P41V | 0.3 |
| V39G | 0.687 |
| V36L | 0.21 |
| G33A | 0.449 |
| R28K | -0.0359 |
| S73H | 0.0113 |
| Q70T | -0.0192 |
| K8E | 0.934 |

Sample 3 — method: competition protein-binding microarray; form: double-stranded DNA, one strand shown; sample: in vitro; concentration: 2 µM; added: Pho4 competitor, 0.05 µM; reading: higher = stronger binding; shared flanks, not repeated: … GTCTTGATTCGCTTGACGCTGCTG
Target: Centromere-binding protein 1, full length, His-tagged (CBF1, Saccharomyces cerevisiae, UniProt P17106, residues 1-351)
Chain of UniProt P17106 (whole entry, looked up): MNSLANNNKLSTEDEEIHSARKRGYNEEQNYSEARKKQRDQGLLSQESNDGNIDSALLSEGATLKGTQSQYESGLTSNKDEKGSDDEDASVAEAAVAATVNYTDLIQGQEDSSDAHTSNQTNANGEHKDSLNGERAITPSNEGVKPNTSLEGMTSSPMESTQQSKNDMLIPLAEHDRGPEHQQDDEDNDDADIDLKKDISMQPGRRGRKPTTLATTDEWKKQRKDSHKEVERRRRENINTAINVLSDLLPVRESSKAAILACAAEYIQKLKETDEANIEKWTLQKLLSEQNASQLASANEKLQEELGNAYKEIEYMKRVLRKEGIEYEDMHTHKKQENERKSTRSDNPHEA
Setting: whole 60-bp probe, lowest competitor level
| Oligonucleotide | fluorescence intensity [a.u.] |
| --- | --- |
| TACGTTGGGCGACCAAACGTGGCTGGTTGCCTGTAA | 55.6 |
| CTAACGAAGGTTTGCAATGTGGGTGACAAGCCAAGT | 72.8 |
| CGGATCGCGCTGACGCACGCTGCGTTTACCAAACTT | 60.8 |
| GTCTTGTCTCATTGGATGGTGGGTGTCCCCACTTCA | 74.5 |
| CATACCCAACCTTGTTTAGTGGGTGAAGATATTTGT | 72.1 |
| GGCAACCAAGTAAACTGCGTGGGTATCTTCAAGTCG | 59.1 |
| GTCGTCATCCTCCAAGCCGTGATGGTCATCTTCTTC | 54.8 |
| TGTAATTAGTTTCGTCACGCTTACATTCGCGCCCTC | 216 |
| CAGCTTCAACCAAATAACGTGGAGGTTCAGGAACAA | 92.4 |
| TAGTGATTGTTGGATCATATGACTGTGGGAAAATAA | 331 |
| CTAACGAAGGTTTTTCACGTGCGCTACAAGCCAAGT | 972 |
| CTGGGGATCAGTTCTCACATGCATCATCCTTTAATA | 104 |
| GCCAGAAGTTCCTGTCACACTCTGCAAATTATCCCG | 95.3 |
| ATAGGTTCAAACTTCGGCGTGCTAAAAGTATATACC | 87.6 |
| TGCGCAACAACTTGTCACAAGACTTTATGTCTAGAA | 194 |
| AGTAGAACTCGTCGGCACGTTCAAAGACCAAGAATT | 75 |
| CTTCAACAACAAGTGTCTGTGACGGCTTCAAGGGTC | 84.2 |
| CGGGGTTAAGTTTGTCACCTAACTTGCTTGCAGCAG | 65.8 |
| TTTGCCTCGGCCTGCCGCGTGGTGATGGTAGTTTGA | 72 |

Sample 4 — method: DHFR PCA, deep sequencing; sample: yeast; added: (+)-ABA 17 µM; relative to: wild-type fitted maximum; reading: higher = stronger binding
Target: ABI1, truncated, D143A, DHFR fusion (Arabidopsis thaliana)
Setting: methotrexate growth selection, single substitutions
Starting sequence: PYL1, truncated, DHFR fusion (Arabidopsis thaliana); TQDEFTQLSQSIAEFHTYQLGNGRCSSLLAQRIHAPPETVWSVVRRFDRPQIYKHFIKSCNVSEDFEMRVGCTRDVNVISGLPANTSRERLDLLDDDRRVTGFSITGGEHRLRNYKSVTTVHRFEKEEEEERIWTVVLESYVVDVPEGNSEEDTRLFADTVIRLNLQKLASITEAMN
| Substitution | relative binding score [%] |
| --- | --- |
| R111Y | 4.93 |
| P36Y | 51.6 |
| I33Q | -6.22 |
| G23E | 59.7 |
| Q167N | 83.8 |
| V136N | 3.29 |
| Q51P | 9.27 |
| H55L | 88.9 |
| A170H | 7.29 |
| F124R | 48.8 |
| D75Y | 86.6 |
| C72V | 86.4 |
| E4G | 67.7 |
| T106M | 79.6 |
| I52K | 74.4 |
| G148Y | 37.4 |
| D159C | 11.9 |
| L166I | 2.3 |

Excerpt of the above (sample 3):
| Oligonucleotide | fluorescence intensity [a.u.] |
| --- | --- |
| CGGATCGCGCTGACGCACGCTGCGTTTACCAAACTT | 60.8 |
| CTGGGGATCAGTTCTCACATGCATCATCCTTTAATA | 104 |
| TACGTTGGGCGACCAAACGTGGCTGGTTGCCTGTAA | 55.6 |
| TGCGCAACAACTTGTCACAAGACTTTATGTCTAGAA | 194 |
| GCCAGAAGTTCCTGTCACACTCTGCAAATTATCCCG | 95.3 |
| GTCTTGTCTCATTGGATGGTGGGTGTCCCCACTTCA | 74.5 |
| CAGCTTCAACCAAATAACGTGGAGGTTCAGGAACAA | 92.4 |
| TTTGCCTCGGCCTGCCGCGTGGTGATGGTAGTTTGA | 72 |
| TGTAATTAGTTTCGTCACGCTTACATTCGCGCCCTC | 216 |
| TAGTGATTGTTGGATCATATGACTGTGGGAAAATAA | 331 |
| CGGGGTTAAGTTTGTCACCTAACTTGCTTGCAGCAG | 65.8 |
| ATAGGTTCAAACTTCGGCGTGCTAAAAGTATATACC | 87.6 |
